Measured values pooled from the literature.
Numbered parts are unrelated; each lists some results of a single study. Positions count from the first letter of the parent shown.

Block 1 — method: protein binding microarray; form: double-stranded DNA, one strand shown; sample: in vitro; concentration: not given; reference: not given; direction: higher = stronger binding
Target: Histone acetyltransferase KAT6A, winged helix 2, GST fusion (KAT6A, Homo sapiens, UniProt Q92794, residues 85-181)
Notes: 8-mer, flanks averaged, mean of 2 arrays, mostly near background
Residues (chain): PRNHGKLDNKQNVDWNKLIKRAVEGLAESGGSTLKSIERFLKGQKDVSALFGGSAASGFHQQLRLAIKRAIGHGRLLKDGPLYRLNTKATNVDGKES
Sequence	E-score
ATCTAGTG	-0.104
GCGATCGA	0.128
AGCGACAC	0.109
ACTCTGCA	-0.024
AAGTACAA	-0.115
GATTTTAC	-0.0163
ATCCGCTG	0.0565
GCGAACGC	-0.00176

Block 2 — target: CCND2, cyclin fold, Cln2 fusion (human); method: yeast growth competition, sequencing; sample: yeast; notes: weak parent motif; reference: not given; direction: higher = stronger binding
Parent: MASTL docking peptide (human); PMIAKNLMCELDE
Change	normalised enrichment score
PMIAKNNMCELDE [L7N]	0.0196
PMISKNLMCELDE [A4S]	-0.0797
PMIAKNLMCHLDE [E10H]	-0.0382
PMKAKNLMCELDE [I3K]	-0.154
PMIAKNLMCELCE [D12C]	0.239
PMIQKNLMCELDE [A4Q]	-0.191
PMPAKNLMCELDE [I3P]	-0.162
PMIAKFLMCELDE [N6F]	-0.0967
PMIAKNLMCELFE [D12F]	0.0966
PMIASNLMCELDE [K5S]	-0.136
PMIAKELMCELDE [N6E]	0.0334

Block 3 — method: protein-binding microarray; form: double-stranded DNA, one strand shown; sample: in vitro; concentration: 250 nM; notes: 60-bp whole probe; together with: salmon DNA 0.4 mg/ml; reference: random background probes; direction: higher = stronger binding; all sequences stand within: GCCTAGCAC … GTCTTGATTCGCTTGACGCTGCTG
Target: Interferon regulatory factor 5, full length, phosphomimetic (IRF5, Homo sapiens, UniProt Q13568-2, residues 1-514, K96S/S451D/S453D/S456D/S462D)
Sequence	log fluorescence
TACGGTATCGGTCTCGGGACGTGCTAG	5.21 z-score
ACTGCTCTGTTGCCTGGTCCTGTGCTA	-0.22 z-score
TGAGATATCGGGTATCGATTAGTGCTA	5.25 z-score
TTAGATGTCGGGTTTCGATTAGTGCTA	6.22 z-score
GACGGACTGTTTATCCTGACGTGCTAG	-0.351 z-score
TCAGCTTTTTAGATCGTACTGTGCTAG	0.248 z-score

Mixed results
Molecule	target	test	system	conditions	how to read	quantity	value
PhoQ, residues 284 288 289 292 302 303 TLSLKA	PhoP, residues 12 14 15 18 19 YHFSH (Escherichia coli, UniProt P23836)	Sort-seq, measured: YFP reporter	E. coli	PhoQ-PhoP variant library, together with: 10 µM Mg2+	reference: high Mg2+ state, higher = stronger signaling	fold induction	1.28

Excerpt of the above (block 2):
Change	normalised enrichment score
PMIAKFLMCELDE [N6F]	-0.0967
PMIAKNLMCELFE [D12F]	0.0966
PMIASNLMCELDE [K5S]	-0.136
